Measured values gathered from unrelated publications.
Parts stem from different laboratories: compare values within a part only. “And” joins repeats or separate records; there may be more than shown.
Chain of UniProt P53355 (whole entry, looked up): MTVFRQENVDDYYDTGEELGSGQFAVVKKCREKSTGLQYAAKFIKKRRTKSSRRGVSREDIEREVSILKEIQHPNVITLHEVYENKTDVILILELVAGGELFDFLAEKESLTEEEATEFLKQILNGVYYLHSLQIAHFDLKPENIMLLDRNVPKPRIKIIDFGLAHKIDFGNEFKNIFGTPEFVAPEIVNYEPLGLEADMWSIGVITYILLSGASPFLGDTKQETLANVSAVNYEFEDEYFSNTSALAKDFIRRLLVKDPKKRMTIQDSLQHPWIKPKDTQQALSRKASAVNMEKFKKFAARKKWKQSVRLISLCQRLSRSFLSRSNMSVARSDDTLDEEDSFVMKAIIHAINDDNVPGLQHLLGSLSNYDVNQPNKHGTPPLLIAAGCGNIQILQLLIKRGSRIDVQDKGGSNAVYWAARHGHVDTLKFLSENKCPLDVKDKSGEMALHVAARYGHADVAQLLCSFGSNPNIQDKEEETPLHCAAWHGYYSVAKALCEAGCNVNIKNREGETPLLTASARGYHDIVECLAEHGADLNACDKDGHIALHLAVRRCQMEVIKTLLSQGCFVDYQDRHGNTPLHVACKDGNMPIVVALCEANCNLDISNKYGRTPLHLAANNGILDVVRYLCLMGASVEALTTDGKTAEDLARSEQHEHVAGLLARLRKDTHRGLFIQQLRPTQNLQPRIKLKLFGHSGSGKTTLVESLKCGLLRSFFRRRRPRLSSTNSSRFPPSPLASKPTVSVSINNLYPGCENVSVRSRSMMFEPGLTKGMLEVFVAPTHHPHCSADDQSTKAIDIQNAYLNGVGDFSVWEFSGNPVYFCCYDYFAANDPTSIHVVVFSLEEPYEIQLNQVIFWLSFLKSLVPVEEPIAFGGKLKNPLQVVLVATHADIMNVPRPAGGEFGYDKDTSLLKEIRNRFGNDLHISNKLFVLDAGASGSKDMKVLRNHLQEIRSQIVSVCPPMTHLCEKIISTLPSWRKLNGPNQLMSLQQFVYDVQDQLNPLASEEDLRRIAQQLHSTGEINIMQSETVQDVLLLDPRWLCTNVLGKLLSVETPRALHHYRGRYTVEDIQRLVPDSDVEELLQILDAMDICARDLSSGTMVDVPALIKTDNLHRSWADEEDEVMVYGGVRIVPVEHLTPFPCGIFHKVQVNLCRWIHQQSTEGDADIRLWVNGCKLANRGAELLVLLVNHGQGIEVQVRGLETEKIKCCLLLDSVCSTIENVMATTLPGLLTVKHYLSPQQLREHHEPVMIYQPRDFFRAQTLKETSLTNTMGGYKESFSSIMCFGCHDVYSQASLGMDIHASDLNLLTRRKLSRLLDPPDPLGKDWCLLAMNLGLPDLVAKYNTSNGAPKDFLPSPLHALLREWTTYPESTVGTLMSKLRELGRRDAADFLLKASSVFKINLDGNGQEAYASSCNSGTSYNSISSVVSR
Chain of UniProt Q15746 (whole entry, looked up): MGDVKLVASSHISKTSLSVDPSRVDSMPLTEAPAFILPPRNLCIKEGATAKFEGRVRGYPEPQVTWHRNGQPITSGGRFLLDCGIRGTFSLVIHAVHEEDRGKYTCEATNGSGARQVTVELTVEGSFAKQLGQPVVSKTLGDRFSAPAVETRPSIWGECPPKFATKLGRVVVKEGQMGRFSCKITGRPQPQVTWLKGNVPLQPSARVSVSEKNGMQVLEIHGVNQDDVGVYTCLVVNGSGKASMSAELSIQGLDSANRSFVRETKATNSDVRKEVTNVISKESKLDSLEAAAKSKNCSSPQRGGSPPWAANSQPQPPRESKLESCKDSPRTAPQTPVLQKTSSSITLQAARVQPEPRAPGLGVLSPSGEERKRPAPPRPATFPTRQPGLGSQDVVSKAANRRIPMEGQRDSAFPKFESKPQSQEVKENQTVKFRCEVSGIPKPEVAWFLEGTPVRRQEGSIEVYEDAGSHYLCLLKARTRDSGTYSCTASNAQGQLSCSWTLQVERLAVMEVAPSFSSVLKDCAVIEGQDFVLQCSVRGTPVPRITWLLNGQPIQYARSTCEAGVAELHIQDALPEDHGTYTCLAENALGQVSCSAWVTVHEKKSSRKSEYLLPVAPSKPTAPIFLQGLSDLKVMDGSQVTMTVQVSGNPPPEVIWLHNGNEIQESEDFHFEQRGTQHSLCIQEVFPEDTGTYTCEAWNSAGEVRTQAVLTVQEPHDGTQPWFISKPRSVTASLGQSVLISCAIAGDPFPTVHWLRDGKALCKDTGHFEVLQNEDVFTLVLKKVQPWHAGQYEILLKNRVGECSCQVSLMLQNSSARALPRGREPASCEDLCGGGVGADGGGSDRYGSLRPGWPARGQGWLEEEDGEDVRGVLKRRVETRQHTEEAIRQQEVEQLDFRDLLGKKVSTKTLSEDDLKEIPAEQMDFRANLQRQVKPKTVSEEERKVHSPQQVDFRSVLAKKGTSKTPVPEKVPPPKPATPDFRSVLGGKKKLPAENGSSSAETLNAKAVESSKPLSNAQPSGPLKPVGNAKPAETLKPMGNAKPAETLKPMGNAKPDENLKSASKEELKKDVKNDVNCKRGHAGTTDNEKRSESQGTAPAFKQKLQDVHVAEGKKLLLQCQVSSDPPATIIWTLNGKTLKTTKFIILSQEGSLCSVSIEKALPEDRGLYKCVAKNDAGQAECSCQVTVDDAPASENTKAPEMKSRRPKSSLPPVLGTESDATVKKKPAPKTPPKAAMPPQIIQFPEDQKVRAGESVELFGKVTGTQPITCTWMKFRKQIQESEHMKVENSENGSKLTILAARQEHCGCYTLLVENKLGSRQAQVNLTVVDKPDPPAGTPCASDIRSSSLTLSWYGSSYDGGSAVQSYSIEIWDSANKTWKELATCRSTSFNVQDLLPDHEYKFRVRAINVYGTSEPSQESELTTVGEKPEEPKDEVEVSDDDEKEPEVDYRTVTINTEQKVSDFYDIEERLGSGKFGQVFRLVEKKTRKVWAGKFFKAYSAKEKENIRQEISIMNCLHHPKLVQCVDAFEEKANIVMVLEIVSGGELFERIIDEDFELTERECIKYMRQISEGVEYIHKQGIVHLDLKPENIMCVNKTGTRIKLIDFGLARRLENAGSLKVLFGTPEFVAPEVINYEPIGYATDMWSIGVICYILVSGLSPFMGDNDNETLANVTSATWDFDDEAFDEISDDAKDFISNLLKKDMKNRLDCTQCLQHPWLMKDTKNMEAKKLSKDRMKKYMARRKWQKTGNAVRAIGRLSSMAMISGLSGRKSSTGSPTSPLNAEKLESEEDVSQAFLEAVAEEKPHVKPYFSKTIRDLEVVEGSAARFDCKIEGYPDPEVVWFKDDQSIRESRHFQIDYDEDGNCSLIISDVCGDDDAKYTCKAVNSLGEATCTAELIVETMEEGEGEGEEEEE
Chain of UniProt Q96PN8 (whole entry, looked up): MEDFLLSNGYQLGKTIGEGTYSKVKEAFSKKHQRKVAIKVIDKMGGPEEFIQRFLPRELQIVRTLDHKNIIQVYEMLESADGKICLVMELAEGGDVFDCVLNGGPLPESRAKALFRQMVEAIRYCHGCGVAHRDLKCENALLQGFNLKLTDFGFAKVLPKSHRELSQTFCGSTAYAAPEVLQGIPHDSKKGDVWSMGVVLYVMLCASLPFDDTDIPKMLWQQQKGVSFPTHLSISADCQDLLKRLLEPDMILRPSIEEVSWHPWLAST
Chain of UniProt Q9H2K8 (whole entry, looked up): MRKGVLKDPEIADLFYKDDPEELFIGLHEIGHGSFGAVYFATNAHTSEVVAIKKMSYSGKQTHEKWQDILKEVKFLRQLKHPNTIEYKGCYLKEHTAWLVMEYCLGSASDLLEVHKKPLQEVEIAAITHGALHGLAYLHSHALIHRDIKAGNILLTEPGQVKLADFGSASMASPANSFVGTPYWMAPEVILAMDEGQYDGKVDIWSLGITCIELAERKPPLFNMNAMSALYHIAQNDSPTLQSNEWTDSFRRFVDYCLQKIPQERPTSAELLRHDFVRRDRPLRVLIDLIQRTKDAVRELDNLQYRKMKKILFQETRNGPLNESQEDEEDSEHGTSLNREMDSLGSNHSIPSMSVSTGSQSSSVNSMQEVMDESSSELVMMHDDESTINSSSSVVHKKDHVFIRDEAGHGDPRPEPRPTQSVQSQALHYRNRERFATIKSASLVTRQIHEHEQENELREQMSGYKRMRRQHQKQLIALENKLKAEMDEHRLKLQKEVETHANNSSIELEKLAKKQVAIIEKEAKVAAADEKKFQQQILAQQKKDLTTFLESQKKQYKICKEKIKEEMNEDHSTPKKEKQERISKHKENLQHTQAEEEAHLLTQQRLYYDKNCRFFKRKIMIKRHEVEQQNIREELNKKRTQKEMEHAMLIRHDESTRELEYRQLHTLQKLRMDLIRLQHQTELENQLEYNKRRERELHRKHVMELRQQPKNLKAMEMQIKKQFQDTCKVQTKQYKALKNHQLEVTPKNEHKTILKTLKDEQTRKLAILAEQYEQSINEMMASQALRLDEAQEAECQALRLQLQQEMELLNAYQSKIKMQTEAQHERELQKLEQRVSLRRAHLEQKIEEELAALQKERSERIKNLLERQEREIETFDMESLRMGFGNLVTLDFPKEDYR
Chain of UniProt Q08881 (whole entry, looked up): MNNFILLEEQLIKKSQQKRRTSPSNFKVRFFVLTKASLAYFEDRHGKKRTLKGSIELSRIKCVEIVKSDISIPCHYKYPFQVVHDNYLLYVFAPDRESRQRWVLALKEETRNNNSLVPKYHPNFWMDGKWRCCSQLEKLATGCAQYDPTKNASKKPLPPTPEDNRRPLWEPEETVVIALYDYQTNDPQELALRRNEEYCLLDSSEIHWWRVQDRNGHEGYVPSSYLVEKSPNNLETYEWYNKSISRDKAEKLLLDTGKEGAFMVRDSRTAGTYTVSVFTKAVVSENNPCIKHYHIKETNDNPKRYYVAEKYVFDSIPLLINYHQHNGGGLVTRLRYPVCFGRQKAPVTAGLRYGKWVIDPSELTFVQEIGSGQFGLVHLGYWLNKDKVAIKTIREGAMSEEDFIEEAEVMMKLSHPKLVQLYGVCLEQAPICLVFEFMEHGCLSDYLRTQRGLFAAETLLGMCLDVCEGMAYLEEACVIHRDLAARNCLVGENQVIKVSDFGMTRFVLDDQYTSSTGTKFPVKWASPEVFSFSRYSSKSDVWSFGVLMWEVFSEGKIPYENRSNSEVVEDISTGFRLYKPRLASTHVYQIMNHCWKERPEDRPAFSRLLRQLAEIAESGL

Block 1 — cell line: mouse MPNST tumor cells; method: high-content immunofluorescence imaging; refers to: nuclear SOX9; tested at: 10 µM; time: 12 h; setting: mean of 2 replicates; relative to: DMSO control; direction: higher = more nuclear SOX9
SMILES | nuclear SOX9 intensity
O=C(O)c1ccc(S(=O)(=O)N(Cc2ccc(OC(F)(F)F)cc2)c2ncc(C(F)(F)F)cc2Cl)cc1 | 83 % of DMSO
CC(N)C12CC3CC(CC(C3)C1)C2 (stereo not shown) | 106 % of DMSO
CC(CN(C)C)CN1c2ccccc2Sc2ccccc21 (stereo not shown) | 204 % of DMSO
CC1=C(/C=C/C(C)=C/C=C/C(C)=C/C(=O)O)C(C)(C)CCC1 | 106 % of DMSO
Cn1cc(-c2[nH]c3cc(NC(=O)[C@H](N)C4CCCCC4)cc4c3c2C=NNC4=O)cn1 | 141 % of DMSO
Nc1nc2ccc(OC(F)(F)F)cc2s1 | 102 % of DMSO and 110 % of DMSO
Cc1ccc(N2CCN(CCC3NC(=O)c4ccccc43)CC2)cc1C (stereo not shown) | 113 % of DMSO
Cc1c(C)c2c(c(C)c1O)CCC(C)(COc1ccc(CC3SC(=O)NC3=O)cc1)O2 (stereo not shown) | 86.6 % of DMSO
CC(C)Oc1ccc(Cc2ccc(NC3=NCCN3)cc2)cc1 | 212 % of DMSO
Cc1ccc2c(=O)c3ccccc3n(CCCN)c2c1C | 308 % of DMSO
O=S(=O)(NCCNC/C=C/c1ccc(Br)cc1)c1cccc2cnccc12 | 210 % of DMSO
COc1ccc(-c2cc(=S)ss2)cc1 | 96.9 % of DMSO

Block 2 — Structure (SMILES): N#CC(=C(N)Sc1ccc(N)cc1)c1ccccc1C(F)(F)F; read-out: enzyme activity; mode: inhibitor; tested at: 0.5 µM; relative to: control
target | remaining activity [%]
Insulin receptor (INSR, Homo sapiens, UniProt P06213) | 101
MATK (Homo sapiens, UniProt P42679) | 90.7
PKN1 (Homo sapiens, UniProt Q16512) | 104
HIPK1 (Homo sapiens, UniProt Q86Z02) | 107
NEK11 (Homo sapiens, UniProt Q8NG66) | 97.7
FLT4 (Homo sapiens, UniProt P35916) | 99.8
NLK (Homo sapiens, UniProt Q9UBE8) | 108
SRC (Homo sapiens, UniProt P12931) | 94.1
ALK (Homo sapiens, UniProt Q9UM73) | 100
ITK (Homo sapiens, UniProt Q08881) | 97.4
FYN (Homo sapiens, UniProt P06241) | 97.1
FER (Homo sapiens, UniProt P16591) | 105
TAOK3 (Homo sapiens, UniProt Q9H2K8) | 98.6
MARK3 (Homo sapiens, UniProt P27448) | 107
STK25 (Homo sapiens, UniProt O00506) | 114
LIM domain kinase 1 (LIMK1, Homo sapiens, UniProt P53667) | 98.7
AKT1 (Homo sapiens, UniProt P31749) | 101
FGR (Homo sapiens, UniProt P09769) | 101
Cyclin-dependent kinase 3, with cyclin E (CDK3, Homo sapiens, UniProt Q00526) | 105
PASK (Homo sapiens, UniProt Q96RG2) | 101
PRKX (Homo sapiens, UniProt P51817) | 98.9
CDC42BPA (Homo sapiens, UniProt Q5VT25) | 103

Block 3 — organism: Plasmodium berghei; mode: inhibitor; cells: Huh-7; strain: GFP-expressing sporozoites, liver stage; tested at: 10 µM; time: 24 h; relative to: untreated control
Structure (SMILES) | infection rate [%]
Cc1onc(-c2ccccc2Cl)c1C(=O)N[C@@H]1C(=O)N2[C@@H]1SC(C)(C)[C@@H]2C(=O)O | 108
CC(=O)OCC(=O)[C@@]1(O)[C@@H](C)C[C@H]2[C@@H]3CCC4=CC(=O)C=C[C@]4(C)[C@@]3(F)[C@@H](O)C[C@@]21C | 96.4
C[C@@H]1C[C@H]2[C@@H]3CCC4=CC(=O)C=C[C@]4(C)[C@@]3(F)[C@@H](O)C[C@]2(C)[C@@]1(O)C(=O)CO | 103
CC1=C(C(=O)O)N2C(=O)[C@@H](NC(=O)[C@H](N)c3ccc(O)cc3)[C@H]2SC1 | 101
COc1ccc([C@@H]2Sc3ccccc3N(CCN(C)C)C(=O)[C@@H]2OC(C)=O)cc1 | 75.6
CC1=C(/C=C/C(C)=C/C=C/C(C)=C/C=C/C=C(C)/C=C/C=C(C)/C=C/C2=C(C)CCCC2(C)C)C(C)(C)CCC1 | 121
CCC(=O)OCC(=O)[C@@]1(OC(=O)CC)[C@@H](C)C[C@H]2[C@@H]3CCC4=CC(=O)C=C[C@]4(C)[C@@]3(Cl)[C@@H](O)C[C@@]21C | 93.7
Oc1c(I)cc(Cl)c2cccnc12 | 53.6
CCCCN1CCCCC1C(=O)Nc1c(C)cccc1C (stereo not shown) | 107
COc1ccccc1OCCNCC(O)COc1cccc2[nH]c3ccccc3c12 (stereo not shown) | 101
O=C(N[C@H](CO)[C@H](O)c1ccc([N+](=O)[O-])cc1)C(Cl)Cl | 72.3
NC(=O)N1c2ccccc2C=Cc2ccccc21 | 108
CC1(C)OC(=O)NC1=O | 99.1
CCc1cn([C@H]2C[C@H](O)[C@@H](CO)O2)c(=O)[nH]c1=O | 115

Block 4 — read-out: cell-free assay; method: competition with immobilised ligand; tested at: 1 µM
Structure (SMILES): O=C(NCc1ncc(C(F)(F)F)cc1Cl)c1ccc2c(c1)C1(CCS(=O)(=O)CC1)[C@@H](C1CC1)N2S(=O)(=O)c1ccc(F)cc1
target | remaining binding
CSNK1G3 (Homo sapiens, UniProt Q9Y6M4) | 100%
PIK3C3 (Homo sapiens, UniProt Q8NEB9) | 89%
PIK3CB (Homo sapiens, UniProt P42338) | 75%
CAMK1G (Homo sapiens, UniProt Q96NX5) | 100%
DAPK1 (Homo sapiens, UniProt P53355) | 100%
MAP2K6 (Homo sapiens, UniProt P52564) | 100%
ERBB3 (Homo sapiens, UniProt P21860) | 100%
CSNK1G2 (Homo sapiens, UniProt P78368) | 85%
HUNK (Homo sapiens, UniProt P57058) | 85%
ROCK2 (Homo sapiens, UniProt O75116) | 93%
LRRK2 (Homo sapiens, UniProt Q5S007, G2019S) | 100%
MYLK (Homo sapiens, UniProt Q15746) | 74%
TSSK3 (Homo sapiens, UniProt Q96PN8) | 97%

Some of these lines once more (block 2):
target | remaining activity [%]
FYN (Homo sapiens, UniProt P06241) | 97.1
FER (Homo sapiens, UniProt P16591) | 105
TAOK3 (Homo sapiens, UniProt Q9H2K8) | 98.6
MARK3 (Homo sapiens, UniProt P27448) | 107
STK25 (Homo sapiens, UniProt O00506) | 114
LIM domain kinase 1 (LIMK1, Homo sapiens, UniProt P53667) | 98.7
AKT1 (Homo sapiens, UniProt P31749) | 101
FGR (Homo sapiens, UniProt P09769) | 101
Cyclin-dependent kinase 3, with cyclin E (CDK3, Homo sapiens, UniProt Q00526) | 105
